Assay results gathered from unrelated publications.
Lines come from different studies, so protocols differ. Numbers after ± are the reported error.

For `CC(C)C(=O)OC[C@H]1O[C@@H](n2ccc(NO)nc2=O)[C@H](O)[C@@H]1O`, the remaining compound was 95.69 ± 0.04% (rat blood dialysate; 250 ng/mL, 4 weeks, -20 °C, long-term storage, with: NHC 1000 ng/mL).
`CSCC[C@@H]1NC(=O)[C@H](CC(=O)O)NC(=O)CNC(=O)[C@H](CCCNC(=N)N)NC(=O)[C@H](C)NC(=O)[C@H](CCC(=O)O)NC(=O)[C@H](CCCNC(=N)N)NC(=O)[C@@H]2CSSC[C@@H]3NC(=O)[C@H](CO)NC(=O)[C@H]([C@@H](C)O)NC(=O)[C@@H]4CCCN4C(=O)[C@H](C)NC(=O)[C@H](Cc4c[nH]c5ccccc45)NC(=O)[C@H](CC(=O)O)NC(=O)CNC(=O)[C@H](CCCNC(=N)N)NC(=O)CNC(=O)[C@H](CCC(N)=O)NC(=O)[C@@H]4CCCN4C(=O)[C@@H](NC(=O)CNC(=O)C(C)F)CSSC[C@H](NC(=O)CNC(=O)[C@H](C)NC(=O)[C@H](CC(C)C)NC(=O)[C@H](CSSC[C@@H](C(=O)NCC(N)=O)NC(=O)[C@H]([C@@H](C)O)NC(=O)[C@H](CCCNC(=N)N)NC(=O)[C@@H]4CCCN4C1=O)NC(=O)[C@H](CC(=O)O)NC(=O)[C@H](CO)NC(=O)[C@H](CC(=O)O)NC(=O)[C@H](CCC(N)=O)NC(=O)[C@H](CO)NC3=O)C(=O)N[C@@H](C(C)C)C(=O)N2` (stereo partly drawn) [fluorine-18 labelled] has a tissue uptake of 0.13 ± 0.03 %ID/g (nude mice U-87 MG xenograft, brain; intravenous, 0.5 h).
With `O=c1[nH]c(Cc2ccccn2)nc2c1cnn2C1CCOCC1` the Tmax was 30 min (healthy men, extensive metabolizers, plasma; oral, 25 mg single dose, tablet, median).
`[123I]c1cncc(OC[C@@H]2CCN2)c1` gave a tissue/plasma ratio of 12.7 (SPECT; human, fusiform gyrus; intravenous bolus, 8.6 mCi; relative to: tissue over plasma).
`C=C1C2CCC(C2)C1(C)C` (stereo not drawn) — result for “detoxification rate ratio”: 2.3 fold (pygmy rabbit over mountain cottontail, liver microsomes; 15 min, pH 7.4; relative to: Brachylagus idahoensis over Sylvilagus nuttallii).
For `CCCCCCCCCC(=O)N[C@@H](Cc1c[nH]c2ccccc12)C(=O)N[C@H](CC(N)=O)C(=O)N[C@@H](CC(=O)O)C(=O)N[C@@H]1C(=O)NCC(=O)N[C@@H](CCCN)C(=O)N[C@@H](CC(=O)O)C(=O)N[C@H](C)C(=O)N[C@@H](CC(=O)O)C(=O)NCC(=O)N[C@H](CO)C(=O)N[C@@H]([C@H](C)CC(=O)O)C(=O)N[C@@H](CC(=O)c2ccccc2N)C(=O)O[C@@H]1C`, “elimination rate constant” read 0.44 ± 0.06 h⁻¹ (male Wistar rat, plasma; subcutaneous, 50 mg/kg, single dose).
`C[N+](C)(C)[C@@H](Cc1c[nH]c(=S)[nH]1)C(=O)[O-]`: “decrease in tissue partition coefficient” 32.7% (rat treated with 1,25-dihydroxyvitamin D3, lungs; intravenous; relative to: untreated control rats).
`CN[C@@](C)(C[18F])C(=O)O` has a tissue uptake of 18 ± 3.4 %ID/g (SCID mouse SK-OV-3 xenograft, kidney; 15 min, post injection).
`O=C1Nc2ccc(Cl)cc2[C@@](C#CC2CC2)(C(F)(F)F)O1` has a tissue concentration of > 150 ng/g (LC-MS/MS; rhesus monkey both sexes, brain; dose not given, 1 day after 10-day dosing).
`CC(C)C[C@H](NC(=O)[C@H](CCC(=O)O)NC(=O)[C@H](CCC(=O)O)NC(=O)[C@H](CC(=O)O)NC(=O)[C@H](CCC(=O)O)NC(=O)[C@H](CCC(=O)O)NC(=O)[C@H](CCC(=O)O)NC(=O)[C@@H](N)CC(=O)O)C(=O)O` has a concentration of 0.264 ng/mL (rat, CSF; intranasal, 5.5 mg/kg, 180 min).
Under “blood glucose at hypoglycaemia”, `CC[C@H](C)[C@H](NC(=O)[C@H](CC(C)C)NC(=O)[C@H](Cc1c[nH]c2ccccc12)NC(=O)[C@H](CCC(N)=O)NC(=O)[C@@H](NC(=O)[C@H](Cc1ccccc1)NC(=O)[C@H](C)NC(=O)[C@H](CCCCNC(=O)COCCOCCNC(=O)COCCOCCNC(=O)CC[C@H](NC(=O)CCCCCCCCCCCCCCCCCCC(=O)O)C(=O)O)NC(=O)[C@H](CCC(N)=O)NC(=O)[C@H](C)NC(=O)[C@@H](NC(=O)[C@H](CCCCN)NC(=O)[C@H](CC(=O)O)NC(=O)[C@H](CC(C)C)NC(=O)C(C)(C)NC(=O)[C@@H](NC(=O)[C@H](CO)NC(=O)[C@H](Cc1ccc(O)cc1)NC(=O)[C@H](CC(=O)O)NC(=O)[C@H](CO)NC(=O)[C@@H](NC(=O)[C@H](Cc1ccccc1)NC(=O)[C@@H](NC(=O)CNC(=O)[C@H](CCC(=O)O)NC(=O)C(C)(C)NC(=O)[C@@H](N)Cc1ccc(O)cc1)[C@@H](C)O)[C@@H](C)O)[C@@H](C)CC)[C@@H](C)CC)C(C)C)C(=O)N[C@@H](C)C(=O)NCC(=O)NCC(=O)N1CCC[C@H]1C(=O)N[C@@H](CO)C(=O)N[C@@H](CO)C(=O)NCC(=O)N[C@@H](C)C(=O)N1CCC[C@H]1C(=O)N1CCC[C@H]1C(=O)N1CCC[C@H]1C(=O)N[C@@H](CO)C(N)=O` is recorded as 53 mg/dL (human; subcutaneous, 5 mg, 29 h).
With `CC(C)c1nc(CN(C)C(=O)N[C@H](C(=O)N[C@@H](Cc2ccccc2)C[C@H](O)[C@H](Cc2ccccc2)NC(=O)OCc2cncs2)C(C)C)cs1` the AUC(0-24) was 13700 ng·h/mL (healthy human volunteers, plasma; oral, dose not given, alone, omeprazole interaction study).

For quick reference, copied from above:
`C=C1C2CCC(C2)C1(C)C` (stereo not drawn) — result for “detoxification rate ratio”: 2.3 fold (pygmy rabbit over mountain cottontail, liver microsomes; 15 min, pH 7.4; relative to: Brachylagus idahoensis over Sylvilagus nuttallii).
`CC(C)C[C@H](NC(=O)[C@H](CCC(=O)O)NC(=O)[C@H](CCC(=O)O)NC(=O)[C@H](CC(=O)O)NC(=O)[C@H](CCC(=O)O)NC(=O)[C@H](CCC(=O)O)NC(=O)[C@H](CCC(=O)O)NC(=O)[C@@H](N)CC(=O)O)C(=O)O` has a concentration of 0.264 ng/mL (rat, CSF; intranasal, 5.5 mg/kg, 180 min).
